Measurements of several laboratories.
Compare with care: the assays were run in different laboratories. ± marks the error that the study gave.
rep main protease: Replicase polyprotein 1ab, main protease (rep, Severe acute respiratory syndrome coronavirus 2, UniProt P0DTD1)

| SMILES | tested on | test | system | setting | how to read | quantity | result |
| --- | --- | --- | --- | --- | --- | --- | --- |
| CC[C@H](C)[C@H](NC(=O)[C@H](CC(C)C)NC(=O)[C@H](Cc1c[nH]c2ccccc12)NC(=O)[C@H](CCC(N)=O)NC(=O)[C@@H](NC(=O)[C@H](Cc1ccccc1)NC(=O)[C@H](C)NC(=O)[C@H](CCCCNC(=O)COCCOCCNC(=O)COCCOCCNC(=O)CC[C@H](NC(=O)CCCCCCCCCCCCCCCCCCC(=O)O)C(=O)O)NC(=O)[C@H](CCC(N)=O)NC(=O)[C@H](C)NC(=O)[C@@H](NC(=O)[C@H](CCCCN)NC(=O)[C@H](CC(=O)O)NC(=O)[C@H](CC(C)C)NC(=O)C(C)(C)NC(=O)[C@@H](NC(=O)[C@H](CO)NC(=O)[C@H](Cc1ccc(O)cc1)NC(=O)[C@H](CC(=O)O)NC(=O)[C@H](CO)NC(=O)[C@@H](NC(=O)[C@H](Cc1ccccc1)NC(=O)[C@@H](NC(=O)CNC(=O)[C@H](CCC(=O)O)NC(=O)C(C)(C)NC(=O)[C@@H](N)Cc1ccc(O)cc1)[C@@H](C)O)[C@@H](C)O)[C@@H](C)CC)[C@@H](C)CC)C(C)C)C(=O)N[C@@H](C)C(=O)NCC(=O)NCC(=O)N1CCC[C@H]1C(=O)N[C@@H](CO)C(=O)N[C@@H](CO)C(=O)NCC(=O)N[C@@H](C)C(=O)N1CCC[C@H]1C(=O)N1CCC[C@H]1C(=O)N1CCC[C@H]1C(=O)N[C@@H](CO)C(N)=O |  |  | healthy human subjects, serum | 4.5 mg, day 29, multiple ascending dose |  | lipase | 25.5 ± 13.2 U/L |
| CC(C)C[C@H](NC(=O)[C@H](CC(=O)O)NC(=O)CNC(=O)[C@H](CCCNC(=N)N)NC(=O)[C@H](CC(C)C)NC(=O)[C@H](CC(N)=O)NC(=O)[C@@H]1CCCN1C(=O)[C@@H](NC(=O)[C@H](C)NC(=O)[C@H](CC(N)=O)NC(=O)CCOCCOCCOCCOCCOCCOCCOCCOCCOCCOCCOCCOCCOCCOCCOCCOCCOCCOCCOCCOCCOCCOCCOCCOCCOCCOCCOCCOCCNC(=O)CCOCCOCCOCCOCCOCCOCCOCCOCCOCCOCCOCCOCCOCCOCCOCCOCCOCCOCCOCCOCCOCCOCCOCCOCCOCCOCCOCCOCCNC(=O)c1ccc(F)cc1)C(C)C)C(=O)N[C@@H](CCC(N)=O)C(=O)N[C@H](C(=O)N[C@@H](CC(C)C)C(=O)N[C@@H](C)C(=O)N[C@@H](CCC(N)=O)C(=O)N[C@@H](CCCCN)C(=O)N[C@H](C(=O)N[C@@H](C)C(=O)N[C@@H](CCCNC(=N)N)C(=O)N[C@H](C(N)=O)[C@@H](C)O)C(C)C)C(C)C [fluorine-18 labelled] |  |  | male athymic nu/nu mouse, BxPC-3 xenograft, kidney | iv, 1 to 4 h |  | kidney uptake | ~42 %ID/g |
| O=c1cc(CO)occ1O | rep main protease | reporter gene (Gaussia luciferase), inhibitor |  | 20 µM |  | inhibition | 2.47% |
| O=C(O[C@@H]1Cc2c(O)cc(O)cc2O[C@@H]1c1cc(O)c(O)c(O)c1)c1cc(O)c(O)c(O)c1 | Spike glycoprotein (Severe acute respiratory syndrome coronavirus 2, UniProt P0DTC2) | binding, BLI |  |  |  | Kd | 11.5 µM |
| CN(C)c1ccc(N(Cc2cc(Cl)cs2)C(=O)Cc2cncc3ccccc23)cc1 | SARS-CoV-2 |  | Caco-2, Omicron BQ.1.1 |  | relative to: CC50 over EC50 | selectivity index | 128 |
| Cn1cnc(Cn2c(=O)[nH]/c(=N\c3cc4cn(C)nc4cc3Cl)n(Cc3cc(F)c(F)cc3F)c2=O)n1 |  |  | human, mild renal impairment, plasma | oral, 375 mg single dose |  | Cmax | 20500 ng/mL |
| Nc1ncnc2c([C@@H]3N[C@H](CO)[C@@H](O)[C@H]3O)c[nH]c12 | Zaire ebolavirus | antibody staining | HeLa, Kikwit | 0.8 µM |  | antigen-positive cells | 60% |
| NC(=O)c1ccc(/C=C/C(=O)N2CCC[C@@]3(CCN(C(=O)[C@@H]4CC(=O)NC(=O)N4)C3)C2)cc1 | rep main protease | enzyme activity |  | 5 µM, mean of runs |  | inhibition | 14.9% |

Repeated from above:
| SMILES | tested on | test | system | setting | how to read | quantity | result |
| --- | --- | --- | --- | --- | --- | --- | --- |
| NC(=O)c1ccc(/C=C/C(=O)N2CCC[C@@]3(CCN(C(=O)[C@@H]4CC(=O)NC(=O)N4)C3)C2)cc1 | rep main protease | enzyme activity |  | 5 µM, mean of runs |  | inhibition | 14.9% |
